Results of several laboratories.
Lines come from different studies, so protocols differ. “And” joins repeats or separate records; there may be more than shown. ± gives the spread as reported.
ampC: ampC (Burkholderia multivorans, UniProt A0A0H3KN52)
TMEM97: Sigma intracellular receptor 2 (TMEM97, Homo sapiens, UniProt Q5BJF2)
Oprk1: Kappa-type opioid receptor (Oprk1, Mus musculus, UniProt P33534)
gag-pol protease: Gag-Pol polyprotein, protease (gag-pol, Human immunodeficiency virus type 1 group M subtype B, UniProt P04585)
Fructose-1,6-bisphosphate aldolase/phosphatase: Fructose-1,6-bisphosphate aldolase/phosphatase (Helicobacter pylori, UniProt Q9ZMG8)
FURIN: Furin (FURIN, Homo sapiens, UniProt P09958)

Molecule	tested on	test	system	setting	measurement	result
Nc1ccc(C=Cc2ccc(N)cc2S(=O)(=O)O)c(S(=O)(=O)O)c1	folA (Escherichia coli, UniProt P0ABQ4)	inhibitor	–	from IC50, non-competitive	Ki	36700 nM
COC[C@H]1O[C@@H](O[C@@H]2OC[C@@H]3O[C@@]4(OC[C@@H](OC(=O)c5c(C)cc(O)cc5O)[C@@H]5OCO[C@H]54)O[C@H]3[C@H]2O)[C@@H](OC)[C@@H](O)[C@@H]1O[C@@H]1O[C@H](C)[C@H](OC)[C@H](O[C@@H]2O[C@H](C)[C@H]3O[C@]4(C[C@@H](O)[C@H](O[C@H]5C[C@@H](O[C@H]6C[C@](C)([N+](=O)[O-])[C@@H](OC)[C@H](C)O6)[C@H](OC(=O)c6c(C)c(Cl)c(O)c(Cl)c6OC)[C@@H](C)O5)[C@@H](C)O4)O[C@]3(C)[C@@H]2O)[C@H]1O	Escherichia coli ribosome POST complex	EF4-mediated back-translocation, stopped-flow proflavin fluorescence	–	together with: EF4 3 µM, GDPNP 0.5 mM	Ki	600 ± 100 nM
O=C(NC1CCNCC1)[C@@H]1CC[C@@H]2CN1C(=O)N2OS(=O)(=O)O	ampC	enzyme activity, inhibitor	–	–	Ki	9000 ± 1000 nM
O=C(OCCN1CCOCC1)C1(c2ccccc2)CCCCC1	TMEM97	ligand displacement, radioligand	–	–	Ki	13100 nM
CCCC(C(=O)O)[C@@H]1CCN[C@H]1C(=O)O (relative stereo)	NMDA receptor, rat	binding	cortical synaptosomes	together with: [3H]-CGP 39653	Ki	> 100000 nM
O=C(/C=C/c1ccoc1)N[C@H]1CC[C@@]2(O)[C@H]3Cc4cccc5c4[C@@]2(CCN3CC2CC2)[C@H]1O5	Oprk1	ligand displacement, radioligand	–	–	Ki	45.7 nM
O=P(O)(O)Oc1cccc(OP(=O)(O)O)c1	Signal transducer and activator of transcription 5B, SH2 (STAT5B, Homo sapiens, UniProt P51692)	ligand displacement, FP	–	–	Ki	27000 nM
CN[C@H]1CC[C@@H](c2ccc(Cl)c(Cl)c2)c2ccccc21	Cytochrome P450 2B6 (CYP2B6, Homo sapiens, UniProt P20813, K262R)	–	–	5 min, pH 7.4	Ki	1760 nM and 1700 nM
Oc1ccc(Nc2nc(-c3ccc(Cl)cc3)cs2)cc1	SPHK2 (Homo sapiens, UniProt Q9NRA0)	enzyme activity, inhibitor, TLC	–	–	Ki	40000 nM
CC(C)CN(C[C@@H](O)[C@H](Cc1ccccc1)NC(=O)O[C@H]1CO[C@H]2OCC[C@H]21)S(=O)(=O)c1ccc(-c2nc(CO)co2)cc1	gag-pol protease	enzyme activity, inhibitor	–	–	Ki	0.0497 nM
CSC[C@H]1O[C@@H](n2cnc3c2N=CNC[C@H]3O)C[C@@H]1O	Fructose-1,6-bisphosphate aldolase/phosphatase	inhibitor	–	pH 7.0, 25 °C, 77 nM enzyme, together with: MTA 400 µM	Ki	> 10000 nM
O=C(O)c1cccc(CS(=O)(=O)NCB(O)O)c1	ADC-7 beta-lactamase, Acinetobacter baumannii	inhibitor	–	5 min preincubation, pH 7.4, together with: nitrocefin 60 µM	Ki	160 nM
Cc1cccc(C)c1OCC(=O)N[C@@H](Cc1ccccc1)[C@@H](O)C[C@H](Cc1ccccc1)NC(=O)[C@H](C(C)C)N1CCCNC1=O	Gag-Pol polyprotein, protease (Human immunodeficiency virus type 1 group M subtype B, UniProt P03367, C567A/C595A/L533I/L563I/L576V/Q507K)	protease activity, inhibitor	–	–	Ki	4.5 ± 0.5 nM
CCOC(=O)[C@@](C)(O)[C@@H]1C[C@@H](CO[Si](c2ccccc2)(c2ccccc2)C(C)(C)C)O[C@H]1n1cc(F)c(=O)[nH]c1=O	Genome polyprotein, NS5 methyltransferase domain (GP1, West Nile virus, UniProt Q9Q6P4)	2'-O methyltransferase activity, inhibitor, TLC, Cheng-Prusoff	–	together with: SAM 80 µM, m7GpppA-RNA 0.36 µM	Ki	14100 nM
CC(C)[C@H](NC(=O)[C@H](CCCNC(=N)N)NC(=O)[C@@H](CCCNC(=N)N)NC(=O)[C@@H](CCCNC(=N)N)NC(=O)[C@H](N)CCCNC(=N)N)C(=O)N[C@@H](CCCNC(=N)N)C(=O)NCc1ccc(C(=N)N)cc1	FURIN	enzyme activity, inhibitor, fluorescence	–	–	Ki	0.0754 nM
CN(C(=O)/C=C/c1ccoc1)[C@H]1CC[C@@]2(O)[C@H]3Cc4cccc5c4[C@@]2(CCN3CC2CC2)[C@H]1O5	Oprk1	ligand displacement, radioligand	–	–	Ki	0.46 nM
O=C(c1ccc(S(=O)(=O)NCCF)cc1)C1CCN(C2Cc3ccccc3CC2O)CC1 (racemic)	SLC18A3 (Homo sapiens, UniProt Q16572)	ligand displacement, radioligand	–	–	Ki	13 nM
CC(=O)N[C@@H](CC(C)C)C(=O)N[C@@H](CC(C)C)C(=O)N[C@@H](CC(C)C)C(=O)N[C@@H](CC(C)C)C(=O)N[C@@H](CCCNC(=N)N)C(=O)N[C@H](C(=O)N[C@@H](CCCNC(=N)N)C(=O)NCc1ccc(C(=N)N)cc1)C(C)(C)C	FURIN	enzyme activity, inhibitor, fluorescence	–	–	Ki	0.0786 nM
C=C[C@H]1C[N@@]2CC[C@H]1C[C@@H]2[C@@H](O)c1ccnc2ccccc12	SLC6A4 (Homo sapiens, UniProt P31645, I172M)	transporter uptake, inhibitor, radiometric	–	–	Ki	310 nM
CN[C@@](C)(C[18F])C(=O)O	–	–	SCID mouse MDA-MB-468 xenograft, heart	60 min, post injection	tissue uptake	3.9 ± 0.7 %ID/g

Molecule	tested on	test	system	setting	measurement	result
c1ccc(CCN2CCCCC2)cc1	adenosine receptor, bovine	binding	bovine striatum	together with: [3H]NECA 4.0 nM	Ki	> 10000 nM
COc1ccc(S(=O)(=O)N(CC(C)C)C[C@@H](O)[C@H](Cc2ccccc2)NC(=O)O[C@H]2CCOC2)cc1	gag-pol protease	protease activity, inhibitor, FRET substrate cleavage	–	–	Ki	0.5 nM
CCCSC[C@H]1O[C@@H](n2cnc3c2N=CNC[C@H]3O)C[C@@H]1O	Fructose-1,6-bisphosphate aldolase/phosphatase	inhibitor	–	pH 7.0, 25 °C, 77 nM enzyme, together with: MTA 400 µM	Ki	420 ± 140 nM
CC(C)[C@H](NC(=O)[C@H](CCCNC(=N)N)NC(=O)[C@H](CCCNC(=N)N)NC(=O)Cc1ccccc1)C(=O)N[C@@H](CCCNC(=N)N)C(=O)NCc1ccc(C(=N)N)cc1	FURIN	enzyme activity, inhibitor, fluorescence	–	–	Ki	0.0563 nM and ~0.05 nM
CC1Oc2cc3c(-c4c(O)cc(O)c5c(O)c6c(cc45)OC(C)C(C)C6=O)c(O)cc(O)c3c(O)c2C(=O)C1C (stereo not drawn)	Replicase polyprotein 1ab, main protease (Feline coronavirus, UniProt Q98VG9)	enzyme activity, inhibitor, fluorescence	–	–	Ki	3600 nM
[O]=[V]([OH])([OH])[OH]	Ubiquitin-associated and SH3 domain-containing protein B, phosphatase domain (UBASH3B, Homo sapiens, UniProt Q8TF42)	phosphatase activity, competitive inhibitor	–	together with: pNPP	Ki	4610 ± 620 nM
Fc1ccc2c(C3CCN(CCCCN4CCCCC4)CC3)noc2c1	HTR2A (Homo sapiens, UniProt P28223)	ligand displacement, radioligand	–	cell membranes	Ki	34.8 nM
COc1ccc(C(=O)O[C@H]2[C@H](O[C@@H]3[C@@H](OC(C)=O)[C@H](O[C@H]4C[C@H]5[C@@H]6CC=C7C[C@@H](O)CC[C@]7(C)[C@H]6CC[C@]5(C)[C@@]4(O)[C@H](C)C(=O)CCC(C)C)OC[C@@H]3O)OC[C@@H](O)[C@@H]2O)cc1	OSBP (Homo sapiens, UniProt P22059)	ligand displacement, radioligand	–	–	Ki	16 nM
CC(C)[C@H](NC(=O)[C@H](CCCNC(=N)N)NC(=O)[C@H](C)NC(=O)[C@H](CCCNC(=N)N)NC(=O)Cc1ccccc1)C(=O)N[C@@H](CCCNC(=N)N)C(=O)NCc1ccc(C(=N)N)cc1	FURIN	enzyme activity, inhibitor, fluorescence	–	–	Ki	0.0459 nM and ~0.05 nM
CCCCCCCC(=O)O[C@H]1/C(=C/C(=O)OC)C[C@H]2C[C@H]([C@@H](C)O)OC(=O)CCCC(=O)OCC(C)(C)[C@]1(O)O2	PRKCA (Homo sapiens, UniProt P17252)	ligand displacement, radioligand	–	–	Ki	240 nM
CSC[C@H]1O[C@@H](n2cnc3c2N=CNC[C@H]3O)[C@H](O)[C@@H]1O	Fructose-1,6-bisphosphate aldolase/phosphatase	inhibitor	–	pH 7.0, 25 °C, 77 nM enzyme, together with: MTA 400 µM	Ki	560 ± 170 nM
O=C(O)C[C@@H]1CC[C@H](NC(=O)Cc2cccs2)B(O)O1	ampC	enzyme activity, inhibitor	–	–	Ki	38000 ± 4000 nM
Nc1ncnc2c1ncn2[C@@H]1O[C@H](CSCC[C@H](N)C(=O)O)[C@@H](O)[C@H]1O	bioB (Escherichia coli, UniProt P12996)	biotin synthase activity, competitive inhibitor	–	–	Ki	100 to 500 nM
CN1CCN(CCc2ccc(Cl)c(Cl)c2)CC1	TMEM97	ligand displacement, radioligand	–	–	Ki	210 nM
NC(CCc1ccccc1)P(=O)(O)CC(Cc1ccc(O)cc1)C(=O)O (stereo not drawn)	Aminopeptidase N (Neisseria meningitidis, UniProt Q9JYV4)	inhibitor	–	together with: L-Arg-ACC 20 µM	Ki	54 ± 5 nM
polymyxin B nonapeptide	lipopolysaccharide (Klebsiella pneumoniae ATCC 13883)	binding, displacement	–	–	Ki	26000 ± 10000 nM
O=C(Nc1ccc(Cl)c(Cl)c1)Nc1ccc(Cl)cc1O	Estrogen sulfotransferase (Ovis aries, UniProt A0ACI6NYW9)	enzyme activity, inhibitor, radiochemical	sheep placental cytosol	together with: estradiol 1 nM	Ki	60 ± 20 nM
CC(C)C[C@H](N)C(=O)O	2-isopropylmalate synthase (leuA, Neisseria meningitidis serogroup B, UniProt Q9JZG1)	enzyme activity, noncompetitive inhibitor, DTP-coupled	–	pH 7.5, 25 °C, wild-type enzyme, together with: α-ketoisovalerate varied, acetyl-CoA 300 µM	Ki	48000 ± 3000 nM
L-cystine	SLC7A11 (Homo sapiens, UniProt Q9UPY5)	L-glutamate uptake, competitive inhibitor	SNB-19	Na-free	Ki	59000 ± 10000 nM

Repeated from above:
Molecule	tested on	test	system	setting	measurement	result
CN[C@@](C)(C[18F])C(=O)O	–	–	SCID mouse MDA-MB-468 xenograft, heart	60 min, post injection	tissue uptake	3.9 ± 0.7 %ID/g
CCOC(=O)[C@@](C)(O)[C@@H]1C[C@@H](CO[Si](c2ccccc2)(c2ccccc2)C(C)(C)C)O[C@H]1n1cc(F)c(=O)[nH]c1=O	Genome polyprotein, NS5 methyltransferase domain (GP1, West Nile virus, UniProt Q9Q6P4)	2'-O methyltransferase activity, inhibitor, TLC, Cheng-Prusoff	–	together with: SAM 80 µM, m7GpppA-RNA 0.36 µM	Ki	14100 nM
